Measured values gathered from unrelated publications.
Parts stem from different laboratories: compare values within a part only.

Series 1 — technique: protein-binding microarray; molecule type: double-stranded DNA, one strand shown; medium: in vitro; tested at: 250 nM; setting: 60-bp whole probe; with: salmon DNA 0.4 mg/ml; relative to: random background probes; reading: higher = stronger binding; shared flanks, not repeated: GCCTAGCAC … GTCTTGATTCGCTTGACGCTGCTG
Target: Interferon regulatory factor 7, full length, phosphomimetic (IRF7, Homo sapiens, UniProt Q92985, residues 1-503, S101K/S471D/S472D/S475D/S476D/S477D/S483D/S484D/S487D)
Target sequence (chain): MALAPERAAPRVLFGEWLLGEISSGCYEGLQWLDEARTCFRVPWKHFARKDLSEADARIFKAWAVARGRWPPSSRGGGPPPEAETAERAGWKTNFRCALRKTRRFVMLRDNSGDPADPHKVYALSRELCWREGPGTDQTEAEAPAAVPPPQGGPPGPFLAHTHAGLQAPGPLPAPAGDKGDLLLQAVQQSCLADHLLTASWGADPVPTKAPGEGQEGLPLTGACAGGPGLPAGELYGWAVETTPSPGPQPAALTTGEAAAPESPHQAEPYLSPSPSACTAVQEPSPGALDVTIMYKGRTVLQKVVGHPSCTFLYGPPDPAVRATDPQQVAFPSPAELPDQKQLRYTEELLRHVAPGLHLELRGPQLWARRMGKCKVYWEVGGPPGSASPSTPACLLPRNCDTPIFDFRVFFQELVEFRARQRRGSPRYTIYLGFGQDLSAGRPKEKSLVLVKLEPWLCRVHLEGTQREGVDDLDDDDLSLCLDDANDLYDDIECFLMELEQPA
Strand	log fluorescence
GACGGACTGGGGTATCGGAACGTGCTA	-0.789 z-score
GACGGTTTCGGCCTCGGGACGTGCTAG	2.73 z-score
TTAGATCTCGGGACTGGATTAGTGCTA	-0.183 z-score
TTGTATCTGGGTTCCCCCCCGTGCTAG	0.523 z-score
TTAGATCTGAGACTGGATTAGTGCTAG	0.0148 z-score
TCATATATGAATATATAACTGTGCTAG	0.356 z-score

Series 2 — technique: RNA Bind-n-Seq; molecule type: RNA; medium: in vitro; tested at: 200 nM; setting: whole 134-nt RNA, ends assumed; with: 150 mM LiCl; relative to: input library; reading: higher = stronger binding; each molecule: 7-deaza-guanosine replaces G
Target: Ras GTPase-activating protein-binding protein 1, full length (G3BP1, Homo sapiens, UniProt Q13283)
UniProt Q13283, sequence (whole entry, looked up): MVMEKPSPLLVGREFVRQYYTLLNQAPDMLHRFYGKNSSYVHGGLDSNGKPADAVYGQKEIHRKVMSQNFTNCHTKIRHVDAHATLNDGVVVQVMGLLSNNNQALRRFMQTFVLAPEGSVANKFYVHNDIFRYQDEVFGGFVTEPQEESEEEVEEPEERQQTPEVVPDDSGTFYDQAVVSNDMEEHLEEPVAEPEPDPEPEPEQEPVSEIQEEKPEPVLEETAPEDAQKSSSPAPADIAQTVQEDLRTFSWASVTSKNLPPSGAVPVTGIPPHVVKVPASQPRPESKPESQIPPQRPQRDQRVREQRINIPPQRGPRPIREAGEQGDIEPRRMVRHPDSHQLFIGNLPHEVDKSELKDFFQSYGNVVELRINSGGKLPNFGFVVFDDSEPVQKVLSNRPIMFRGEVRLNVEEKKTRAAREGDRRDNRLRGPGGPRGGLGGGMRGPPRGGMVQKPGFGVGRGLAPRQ
Shared flanks, not repeated: GGGAGUUCUACAGUCCGACGAUC … UGGAAUUCUCGGGUGUCAAGG
Strand	log2 enrichment
UUCCUCAAGUCCUGUGCUACACAUCGUAUGUACCGAAUCGGAGGAGGAGGGAAAGUAUUAUGUUACGCCGUUCGGAUCUGCACUUCCAGC	-1.65
CCUGUGCUACACAUCGUAUGUACCGAAUCGGAAAAAAAGGAAAAAAAGGAAAAAAAGGGGAAAGUAUUAUGUUACGCCGUUCGGAUCUGC	-0.442
UCAGAGGAAUAUCCUUGACUUCCCCCAGCAUGUUUCCCCCUCCAAGGACAUCCGGACAGCCAGCACAGAGGCCGACAAGAAGCUCUCUGA	0.79
UCCUGUGCUACACAUCGUAUGUACCGAAUCGGGAAAAAAGGGAAAAAAGGAAAAAAGGGAAAGUAUUAUGUUACGCCGUUCGGAUCUGCA	0.0636
UGGCCCUGGUGGCAUGCGGGGAGGAAGAGGUGGUCUCAUGGAUCGUGGUGGUCCCGGUGGAAUGUUCAGAGGUGGCCGUGGUGGAGACAG	0.39
AGUCCUGUGCUACACAUCGUAUGUACCGAAUCGGAAAAAGGAAAAAGGUUUUUUUGGAAAGUAUUAUGUUACGCCGUUCGGAUCUGCACU	-2.34
UGGGAGGUGGAUUUUGUUUAUUUUUUUAGCUCAUUUCCAGGGGUGGGAAGUUUUUUUUAAUAUGUGUCAUGAAUAAAGUUGUUUUUGAAA	0.0613

Series 3 — technique: protein binding microarray; molecule type: double-stranded DNA, one strand shown; medium: in vitro; tested at: not given; relative to: not given; reading: higher = stronger binding
Target: Histone acetyltransferase KAT6A, winged helix 1, GST fusion (KAT6A, Homo sapiens, UniProt Q92794, residues 1-85)
Setting: 8-mer, flanks averaged, mean of 2 arrays, mostly near background
Construct (chain): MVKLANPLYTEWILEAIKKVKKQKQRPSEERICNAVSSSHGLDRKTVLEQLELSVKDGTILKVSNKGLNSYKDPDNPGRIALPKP
Strand	E-score
GTCGATCA	-0.184
CACGTGCA	-0.148
AGCTTGGC	-0.0862
AGATAATA	-0.0822
AAGGAACA	-0.211
CGATAGCC	0.219
AAGGCGTG	0.0889

Single results of other studies
Molecule	target	assay	system	conditions	scale	endpoint	result
PhoQ, residues 284 288 289 292 302 303 SMYGEC	PhoP, residues 12 14 15 18 19 TPWLV (Escherichia coli, UniProt P23836)	Sort-seq, measured: YFP reporter	E. coli	PhoQ-PhoP variant library, with: 10 µM Mg2+	relative to: high Mg2+ state, higher = stronger signaling	fold induction	2.63

Repeated from above (series 2):
Strand	log2 enrichment
CCUGUGCUACACAUCGUAUGUACCGAAUCGGAAAAAAAGGAAAAAAAGGAAAAAAAGGGGAAAGUAUUAUGUUACGCCGUUCGGAUCUGC	-0.442
